Experimental data from different studies.
Protocols differ between the studies behind these lines. “And” joins repeats or separate records; there may be more than shown. ± marks the error that the study gave.
Nuclear receptor subfamily 2 group C member 2 ligand-binding domain: Nuclear receptor subfamily 2 group C member 2, ligand-binding domain (Homo sapiens, UniProt P49116)
UniProt P02911, sequence (whole entry, looked up): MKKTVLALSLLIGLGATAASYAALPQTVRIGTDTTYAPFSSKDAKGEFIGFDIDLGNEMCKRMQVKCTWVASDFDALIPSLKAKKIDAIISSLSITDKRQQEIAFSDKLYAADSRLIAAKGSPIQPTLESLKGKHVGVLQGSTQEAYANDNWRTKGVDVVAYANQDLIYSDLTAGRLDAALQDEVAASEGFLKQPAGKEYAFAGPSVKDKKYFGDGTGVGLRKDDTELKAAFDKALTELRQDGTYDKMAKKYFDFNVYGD
UniProt P49116, sequence (whole entry, looked up): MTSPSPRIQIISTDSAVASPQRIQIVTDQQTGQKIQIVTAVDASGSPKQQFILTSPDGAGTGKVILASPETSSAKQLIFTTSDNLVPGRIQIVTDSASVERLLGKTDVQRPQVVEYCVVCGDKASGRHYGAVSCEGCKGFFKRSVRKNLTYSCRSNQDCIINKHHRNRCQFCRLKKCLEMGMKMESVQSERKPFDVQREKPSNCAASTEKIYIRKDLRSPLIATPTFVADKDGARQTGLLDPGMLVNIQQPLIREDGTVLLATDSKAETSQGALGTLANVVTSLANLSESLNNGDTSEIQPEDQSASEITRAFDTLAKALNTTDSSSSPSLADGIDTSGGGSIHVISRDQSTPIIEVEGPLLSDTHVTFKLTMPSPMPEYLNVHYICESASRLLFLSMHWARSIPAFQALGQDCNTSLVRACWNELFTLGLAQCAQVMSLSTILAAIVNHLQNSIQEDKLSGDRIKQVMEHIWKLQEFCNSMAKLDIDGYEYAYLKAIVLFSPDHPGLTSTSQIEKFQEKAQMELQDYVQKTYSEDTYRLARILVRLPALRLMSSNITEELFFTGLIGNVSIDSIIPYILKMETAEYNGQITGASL
UniProt Q16774, sequence (whole entry, unmodified, looked up): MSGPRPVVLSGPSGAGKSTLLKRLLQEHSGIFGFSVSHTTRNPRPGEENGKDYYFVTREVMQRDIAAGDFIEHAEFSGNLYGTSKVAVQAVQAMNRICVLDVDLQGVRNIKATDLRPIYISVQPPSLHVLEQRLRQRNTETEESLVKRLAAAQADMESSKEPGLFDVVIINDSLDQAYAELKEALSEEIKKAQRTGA
UniProt P11413, sequence (whole entry, looked up): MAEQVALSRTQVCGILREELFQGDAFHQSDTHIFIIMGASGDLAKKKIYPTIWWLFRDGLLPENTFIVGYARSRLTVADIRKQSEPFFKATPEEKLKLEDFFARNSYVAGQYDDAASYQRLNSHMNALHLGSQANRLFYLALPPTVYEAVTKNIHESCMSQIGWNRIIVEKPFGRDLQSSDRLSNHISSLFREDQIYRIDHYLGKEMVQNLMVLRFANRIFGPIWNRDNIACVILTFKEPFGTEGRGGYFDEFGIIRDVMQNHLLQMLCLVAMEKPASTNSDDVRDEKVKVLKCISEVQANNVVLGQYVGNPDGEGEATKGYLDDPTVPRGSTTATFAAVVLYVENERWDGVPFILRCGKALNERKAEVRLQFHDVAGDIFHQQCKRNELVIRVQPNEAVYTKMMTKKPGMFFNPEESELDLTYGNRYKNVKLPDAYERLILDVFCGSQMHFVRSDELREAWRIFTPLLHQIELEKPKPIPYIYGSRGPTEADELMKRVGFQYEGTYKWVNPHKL
UniProt Q06187, sequence (whole entry, looked up): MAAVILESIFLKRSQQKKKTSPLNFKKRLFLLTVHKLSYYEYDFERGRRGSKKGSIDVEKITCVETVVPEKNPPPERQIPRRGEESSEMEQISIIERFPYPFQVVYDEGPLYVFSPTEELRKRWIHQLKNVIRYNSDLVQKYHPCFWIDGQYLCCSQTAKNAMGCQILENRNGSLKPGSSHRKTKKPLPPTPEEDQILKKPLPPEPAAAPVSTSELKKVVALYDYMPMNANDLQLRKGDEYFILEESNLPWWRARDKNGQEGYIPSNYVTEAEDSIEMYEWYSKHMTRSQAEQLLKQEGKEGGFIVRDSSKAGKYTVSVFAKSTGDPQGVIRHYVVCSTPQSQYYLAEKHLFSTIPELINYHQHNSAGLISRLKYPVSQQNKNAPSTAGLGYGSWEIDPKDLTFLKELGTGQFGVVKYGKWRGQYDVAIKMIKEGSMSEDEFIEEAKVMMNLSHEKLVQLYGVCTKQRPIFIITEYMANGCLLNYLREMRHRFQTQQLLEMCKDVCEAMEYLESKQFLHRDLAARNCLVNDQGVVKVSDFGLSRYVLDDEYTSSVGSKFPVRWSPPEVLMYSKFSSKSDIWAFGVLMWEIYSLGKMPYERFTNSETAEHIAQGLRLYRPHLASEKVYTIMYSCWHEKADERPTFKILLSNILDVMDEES
UniProt P63208, sequence (whole entry, looked up): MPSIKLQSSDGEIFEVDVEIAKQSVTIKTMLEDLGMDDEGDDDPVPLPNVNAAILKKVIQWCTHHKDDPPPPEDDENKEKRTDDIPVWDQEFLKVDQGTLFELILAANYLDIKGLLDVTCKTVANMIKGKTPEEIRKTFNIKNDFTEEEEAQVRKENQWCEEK
UniProt Q8TDU6, sequence (whole entry, looked up): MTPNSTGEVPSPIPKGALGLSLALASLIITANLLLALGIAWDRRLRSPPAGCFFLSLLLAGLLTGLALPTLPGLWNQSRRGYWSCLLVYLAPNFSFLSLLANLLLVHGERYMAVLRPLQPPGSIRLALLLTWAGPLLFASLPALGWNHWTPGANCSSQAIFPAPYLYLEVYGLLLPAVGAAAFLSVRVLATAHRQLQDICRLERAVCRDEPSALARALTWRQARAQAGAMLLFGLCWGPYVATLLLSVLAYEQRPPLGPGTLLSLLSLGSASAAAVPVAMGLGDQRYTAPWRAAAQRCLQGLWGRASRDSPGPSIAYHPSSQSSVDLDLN

Structure (SMILES) | target | assay | system | setting | scale | measurement | result
CC(=O)N[C@@H](COP(=O)(O)O)C(=O)N1CCC[C@H]1C(=O)N[C@H](C(=O)N[C@@H](Cc1ccccc1)C(N)=O)[C@@H](C)O | Breast cancer type 1 susceptibility protein, tandem BRCT domains (BRCA1, Homo sapiens, UniProt P38398) | binding, isothermal titration calorimetry |  | BRCT domain, BACH1 peptide |  | ΔG | -32.2 ± 0.418 kJ/mol
Cl.Cl.OCCOCCN1CCN(C(c2ccccc2)c2ccc(Cl)cc2)CC1 (stereo not drawn) | Nuclear receptor subfamily 2 group C member 2 ligand-binding domain | SPR imaging |  | 600 nM |  | koff | 8.85e-07 s⁻¹
CC1CCCN(C(=O)c2cc3ncccn3n2)C1 (stereo not drawn) | S-phase kinase-associated protein 1 (SKP1, Homo sapiens, UniProt P63208) | binding, affinity selection mass spectrometry |  |  | relative to: other proteins in batch | log fold enrichment | -0.077
COc1ccc(F)cc1C(=O)NCc1ccc(-c2nn([C@@H](C)C(F)(F)F)c(N)c2C(N)=O)cc1 | BTK (Homo sapiens, UniProt Q06187) | differential scanning fluorimetry |  | with: BTK inhibitor 100 µM |  | first melting temperature | 41.2 °C
CCCC[C@H]1CN(c2cccc(OC(F)(F)F)c2)C(=O)CN1Cc1cncn1Cc1ccc(C#N)c(F)c1 | Cryptococcus neoformans farnesyltransferase | enzyme activity, inhibitor, fluorescence |  | with: 1 µM FPP, 0.5 µM dansylated peptide |  | IC50 | 0.04 µM
CCCCC[C@H](O)/C=C/[C@H]1[C@H](O)CC(=O)[C@@H]1CCCCCCC(=O)O | Nuclear receptor subfamily 2 group C member 2 ligand-binding domain | SPR imaging |  | 600 nM |  | koff | 4.24e-05 s⁻¹
N=C(N)NCCC[C@H](N)C(=O)O | argT (Salmonella enterica, UniProt P02911) | binding, isothermal titration calorimetry |  | two-sets-of-sites model, site 2, mixture with SAR11_1210 |  | Ka | 1.02e+08 M⁻¹ and 9.55e+07 M⁻¹
O=C(COP(=O)(O)O)[C@@H](O)[C@H](O)[C@H](O)COP(=O)(O)O | Pyridoxal-dependent decarboxylase domain-containing protein 1 (PDXDC1, Homo sapiens, UniProt Q6P996) | thermal proteome profiling, refers to: PDXDC1 | HepG2 cell lysate | concentration not given, 57 over 37 °C, mean | relative to: compound over control | thermal stability ratio | 0.58
C[S+](CC[C@H](N)C(=O)O)C[C@H]1O[C@@H](n2cnc3c(N)ncnc32)[C@H](O)[C@@H]1O (stereo partly drawn) | O-methyltransferase (Sorghum bicolor, UniProt A0A1B6PFV1) | isothermal titration calorimetry |  | concentration not given, apo protein |  | -TΔS of binding | 2.3 kJ/mol
C=CC(=O)N1CCC(C(=O)NCC(=O)N2CCN(c3nc(-c4cnc(N)nc4C(F)F)nc(N4CCOCC4)n3)CC2)CC1 | EGFR (Homo sapiens, UniProt P00533, G719C) | KINOMEscan |  | 1 µM |  | remaining binding | 87%
CC[C@H](C)[C@H](NC(=O)[C@H](CCC(=O)O)NC(=O)[C@H](CCC(=O)O)NC(=O)[C@@H]1CCCN1C(=O)[C@H](CC(=O)O)NC(=O)[C@H](C)NC(=O)[C@H](CCC(N)=O)NC(=O)[C@@H](NC(=O)[C@H](C)NC(=O)[C@@H](NC(=O)[C@H](CO)NC(=O)[C@@H](NC(=O)[C@H](CCCCN)NC(=O)[C@@H](N)Cc1ccc(O)cc1)[C@@H](C)O)C(C)C)[C@@H](C)O)C(=O)N[C@H](C(=O)N[C@H](C(=O)N[C@@H](CC(C)C)C(=O)N[C@@H](CC(=O)O)C(=O)N[C@@H](CC(=O)O)C(=O)N[C@@H](CC(=O)O)C(=O)N[C@@H](CC(=O)O)C(=O)O)C(C)C)[C@@H](C)CC | Small ubiquitin-related modifier 1 (Homo sapiens, UniProt P63165, C52A) | isothermal titration calorimetry |  | pH 7.4, SUMO1 construct |  | -TΔS | -53.1 ± 2.51 kJ/mol
Nc1ncnc2c1ncn2[C@@H]1O[C@H](COP(=O)(O)OP(=O)(O)O)[C@@H](O)[C@H]1O | GUK1 (Homo sapiens, UniProt Q16774) | binding, isothermal titration calorimetry |  | molar ratio 3.736, fitted curve |  | ΔH | -0.403 kJ/mol
CC[C@H](C)[C@@H]1NC(=O)[C@H]([C@@H](C)CC)NC(=O)[C@@H](Cc2ccc(O)cc2)NC(=O)CSC[C@@H](C(N)=O)NC(=O)[C@H](CCCNC(=N)N)NC(=O)[C@H](CCCCN)NC(=O)[C@H](CC(C)C)NC(=O)[C@H](CO)NC(=O)[C@H](CO)NC(=O)[C@H](CC(C)C)NC(=O)[C@H](Cc2ccccc2)NC(=O)[C@H](C(C)C)NC(=O)CNC(=O)[C@H](CC(C)C)NC(=O)[C@@H]2CCCN2C(=O)[C@H]([C@@H](C)O)NC(=O)[C@H](CC(=O)O)NC1=O | VPS35/VPS29 (Homo sapiens, UniProt Q96QK1+Q9UBQ0) | binding, ITC |  | 25 °C, heterodimer |  | -TΔS | 3.77 ± 1.26 kJ/mol
CCN1CCC[C@H]1CNC(=O)c1c(O)c(Cl)cc(Cl)c1OC | GPBAR1 (Homo sapiens, UniProt Q8TDU6) | receptor activation, TANGO luminescence |  | concentration not given, unconfirmed screen | relative to: vehicle control | log2 fold change | -0.345
N#Cc1cc(Nc2ncc3c(n2)CCCCC3=O)cs1 | G6PD (Homo sapiens, UniProt P11413) | inhibitor, LC-MS, refers to: 6-phosphogluconate production |  | concentration not given |  | enzyme activity | inhibited

Some of these lines once more:
Structure (SMILES) | target | assay | system | setting | scale | measurement | result
C=CC(=O)N1CCC(C(=O)NCC(=O)N2CCN(c3nc(-c4cnc(N)nc4C(F)F)nc(N4CCOCC4)n3)CC2)CC1 | EGFR (Homo sapiens, UniProt P00533, G719C) | KINOMEscan |  | 1 µM |  | remaining binding | 87%
